# Measurements of several laboratories.
# A part holds a random share of what one study measured.
# UniProt O43683, sequence (whole entry, looked up): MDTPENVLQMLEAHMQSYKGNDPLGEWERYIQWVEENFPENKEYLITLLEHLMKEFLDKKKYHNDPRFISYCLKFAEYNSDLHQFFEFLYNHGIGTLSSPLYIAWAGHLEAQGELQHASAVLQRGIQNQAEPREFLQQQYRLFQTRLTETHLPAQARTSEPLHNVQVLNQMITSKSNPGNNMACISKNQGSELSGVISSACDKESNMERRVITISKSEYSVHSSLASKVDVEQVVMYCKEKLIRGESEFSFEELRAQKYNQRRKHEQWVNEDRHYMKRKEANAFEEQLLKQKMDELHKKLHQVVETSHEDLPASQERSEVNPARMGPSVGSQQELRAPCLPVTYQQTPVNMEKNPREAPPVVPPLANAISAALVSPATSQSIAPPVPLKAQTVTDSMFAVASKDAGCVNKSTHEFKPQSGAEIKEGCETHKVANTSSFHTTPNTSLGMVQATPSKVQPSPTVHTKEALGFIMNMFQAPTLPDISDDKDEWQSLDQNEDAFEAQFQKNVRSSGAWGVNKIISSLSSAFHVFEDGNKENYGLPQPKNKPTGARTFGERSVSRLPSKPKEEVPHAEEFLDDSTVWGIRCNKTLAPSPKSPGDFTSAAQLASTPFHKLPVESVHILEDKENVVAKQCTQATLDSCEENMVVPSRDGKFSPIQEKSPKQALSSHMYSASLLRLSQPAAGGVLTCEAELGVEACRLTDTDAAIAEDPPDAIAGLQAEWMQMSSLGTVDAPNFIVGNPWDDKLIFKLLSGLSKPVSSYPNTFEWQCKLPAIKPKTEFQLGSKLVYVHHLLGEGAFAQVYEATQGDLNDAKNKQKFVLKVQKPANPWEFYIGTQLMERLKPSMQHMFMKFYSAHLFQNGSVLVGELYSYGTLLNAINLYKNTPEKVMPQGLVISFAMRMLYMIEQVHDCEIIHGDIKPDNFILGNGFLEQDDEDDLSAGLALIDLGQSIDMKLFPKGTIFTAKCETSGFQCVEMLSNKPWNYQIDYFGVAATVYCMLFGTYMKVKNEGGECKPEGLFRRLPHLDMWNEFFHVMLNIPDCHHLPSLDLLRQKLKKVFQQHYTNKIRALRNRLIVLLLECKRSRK
# UniProt Q13470, sequence (whole entry, looked up): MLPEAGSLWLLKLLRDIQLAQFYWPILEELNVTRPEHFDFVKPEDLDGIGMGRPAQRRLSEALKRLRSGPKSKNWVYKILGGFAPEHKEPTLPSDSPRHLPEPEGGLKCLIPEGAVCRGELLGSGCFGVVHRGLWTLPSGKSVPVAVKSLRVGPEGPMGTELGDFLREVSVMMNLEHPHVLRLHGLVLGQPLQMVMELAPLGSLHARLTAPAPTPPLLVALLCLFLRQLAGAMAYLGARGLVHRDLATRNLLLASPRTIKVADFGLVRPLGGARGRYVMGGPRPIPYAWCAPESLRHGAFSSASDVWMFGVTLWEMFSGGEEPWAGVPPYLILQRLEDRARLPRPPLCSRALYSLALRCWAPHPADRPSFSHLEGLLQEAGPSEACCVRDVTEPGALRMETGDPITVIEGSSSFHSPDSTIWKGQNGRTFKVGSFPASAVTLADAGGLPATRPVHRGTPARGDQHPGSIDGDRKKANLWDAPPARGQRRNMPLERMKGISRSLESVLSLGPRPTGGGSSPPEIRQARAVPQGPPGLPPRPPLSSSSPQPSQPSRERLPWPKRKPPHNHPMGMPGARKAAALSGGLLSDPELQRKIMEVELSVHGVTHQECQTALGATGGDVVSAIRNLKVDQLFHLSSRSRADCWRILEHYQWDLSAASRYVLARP
# UniProt P42336, sequence (whole entry, unmodified, looked up): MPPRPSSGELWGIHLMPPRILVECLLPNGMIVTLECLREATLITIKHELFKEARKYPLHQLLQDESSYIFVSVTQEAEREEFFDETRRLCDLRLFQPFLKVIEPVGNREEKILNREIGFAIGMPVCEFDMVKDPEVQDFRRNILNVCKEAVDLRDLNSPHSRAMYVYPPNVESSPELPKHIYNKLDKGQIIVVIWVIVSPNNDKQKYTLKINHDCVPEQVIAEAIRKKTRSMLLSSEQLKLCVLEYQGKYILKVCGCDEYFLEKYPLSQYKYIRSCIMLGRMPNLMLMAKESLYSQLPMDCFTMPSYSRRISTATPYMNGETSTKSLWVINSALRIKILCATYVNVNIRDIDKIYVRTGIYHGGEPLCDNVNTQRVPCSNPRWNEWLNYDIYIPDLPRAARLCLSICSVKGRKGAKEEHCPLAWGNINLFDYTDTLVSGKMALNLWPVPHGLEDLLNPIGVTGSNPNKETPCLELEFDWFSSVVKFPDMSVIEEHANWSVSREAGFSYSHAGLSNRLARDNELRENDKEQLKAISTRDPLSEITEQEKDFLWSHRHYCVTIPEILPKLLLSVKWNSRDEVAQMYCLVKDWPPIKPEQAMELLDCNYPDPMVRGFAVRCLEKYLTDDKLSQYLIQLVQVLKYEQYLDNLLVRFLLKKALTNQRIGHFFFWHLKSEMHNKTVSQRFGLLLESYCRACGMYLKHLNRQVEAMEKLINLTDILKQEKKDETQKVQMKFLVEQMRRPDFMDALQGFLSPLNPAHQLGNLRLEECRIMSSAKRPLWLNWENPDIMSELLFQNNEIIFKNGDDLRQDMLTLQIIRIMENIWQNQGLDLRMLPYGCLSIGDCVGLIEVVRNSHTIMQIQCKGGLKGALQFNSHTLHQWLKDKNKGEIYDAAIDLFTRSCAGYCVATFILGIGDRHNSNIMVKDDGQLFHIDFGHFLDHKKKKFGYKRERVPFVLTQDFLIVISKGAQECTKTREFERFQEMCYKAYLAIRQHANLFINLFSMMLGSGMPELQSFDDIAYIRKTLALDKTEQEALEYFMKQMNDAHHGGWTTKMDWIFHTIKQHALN
# UniProt Q9Y243, sequence (whole entry, looked up): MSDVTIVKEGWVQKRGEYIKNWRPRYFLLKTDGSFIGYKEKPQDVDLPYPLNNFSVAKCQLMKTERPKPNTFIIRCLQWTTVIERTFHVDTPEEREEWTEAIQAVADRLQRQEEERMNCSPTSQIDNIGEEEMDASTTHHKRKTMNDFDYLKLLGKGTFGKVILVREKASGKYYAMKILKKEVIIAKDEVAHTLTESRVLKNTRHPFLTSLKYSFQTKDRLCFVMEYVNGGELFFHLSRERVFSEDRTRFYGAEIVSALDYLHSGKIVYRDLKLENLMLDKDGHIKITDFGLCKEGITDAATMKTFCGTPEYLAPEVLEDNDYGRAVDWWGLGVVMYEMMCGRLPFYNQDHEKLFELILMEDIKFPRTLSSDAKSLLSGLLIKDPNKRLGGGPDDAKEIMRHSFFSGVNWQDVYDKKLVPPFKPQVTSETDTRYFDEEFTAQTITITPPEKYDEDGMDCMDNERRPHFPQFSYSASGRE
# UniProt Q92630, sequence (whole entry, looked up): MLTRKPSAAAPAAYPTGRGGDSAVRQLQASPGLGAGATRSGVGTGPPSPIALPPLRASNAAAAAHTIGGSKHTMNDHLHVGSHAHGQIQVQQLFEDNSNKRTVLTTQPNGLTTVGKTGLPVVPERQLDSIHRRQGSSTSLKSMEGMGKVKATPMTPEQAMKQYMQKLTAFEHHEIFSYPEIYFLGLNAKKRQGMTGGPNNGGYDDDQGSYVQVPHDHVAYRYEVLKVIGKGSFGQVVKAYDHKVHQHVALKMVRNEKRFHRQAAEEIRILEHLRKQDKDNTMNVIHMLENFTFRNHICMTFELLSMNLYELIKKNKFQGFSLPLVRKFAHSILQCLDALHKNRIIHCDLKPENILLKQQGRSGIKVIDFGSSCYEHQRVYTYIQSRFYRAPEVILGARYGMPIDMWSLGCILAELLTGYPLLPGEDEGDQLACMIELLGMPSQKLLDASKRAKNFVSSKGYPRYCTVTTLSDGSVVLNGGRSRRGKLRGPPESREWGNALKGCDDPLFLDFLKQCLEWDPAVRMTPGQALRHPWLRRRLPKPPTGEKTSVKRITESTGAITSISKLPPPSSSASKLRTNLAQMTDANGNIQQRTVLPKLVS
# UniProt Q8IY84, sequence (whole entry, looked up): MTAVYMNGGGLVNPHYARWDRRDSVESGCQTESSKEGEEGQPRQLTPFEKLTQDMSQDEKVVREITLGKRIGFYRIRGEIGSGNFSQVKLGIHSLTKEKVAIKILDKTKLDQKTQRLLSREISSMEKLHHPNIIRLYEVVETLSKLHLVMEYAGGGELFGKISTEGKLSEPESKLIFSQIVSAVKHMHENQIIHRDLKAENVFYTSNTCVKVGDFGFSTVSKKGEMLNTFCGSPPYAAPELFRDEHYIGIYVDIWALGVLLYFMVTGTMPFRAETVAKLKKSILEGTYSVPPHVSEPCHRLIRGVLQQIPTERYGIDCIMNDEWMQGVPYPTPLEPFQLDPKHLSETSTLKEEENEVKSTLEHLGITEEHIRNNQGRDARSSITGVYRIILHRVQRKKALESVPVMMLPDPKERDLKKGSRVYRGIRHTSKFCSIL

# Study 1 — observed: binding; concentration: 1 µM
# SMILES: Cc1ccc(NC(=O)c2ccnc(C(F)(F)F)c2)cc1-c1cc(OCCO)nc(N2CCOCC2)c1
target,method,remaining binding [%]
"Insulin receptor (INSR, Homo sapiens, UniProt P06213)",,81
"DCLK3 (Homo sapiens, UniProt Q9C098)",competition with immobilised ligand,100
"TEC (Homo sapiens, UniProt P42680)",competition with immobilised ligand,90
"EPHA3 (Homo sapiens, UniProt P29320)",competition with immobilised ligand,97
"NEK9 (Homo sapiens, UniProt Q8TD19)",,100
"SLK (Homo sapiens, UniProt Q9H2G2)",competition with immobilised ligand,92
"BUB1 (Homo sapiens, UniProt O43683)",,100
"BMPR1B (Homo sapiens, UniProt O00238)",competition with immobilised ligand,100
"NIM1K (Homo sapiens, UniProt Q8IY84)",,84
"PIK3CD (Homo sapiens, UniProt O00329)",,100
"TNK1 (Homo sapiens, UniProt Q13470)",competition with immobilised ligand,100
"MAP4K2 (Homo sapiens, UniProt Q12851)",competition with immobilised ligand,100
"CDKL5 (Homo sapiens, UniProt O76039)",,100

# Study 2 — concentration: 1 µM
# SMILES: C=CC(=O)N1CCC([C@@H]2CCNc3c(C(N)=O)c(-c4ccc(Oc5ccccc5)cc4)nn32)CC1
target,observed,action,inhibition [%]
"PAK5 (Homo sapiens, UniProt Q9P286)",enzyme activity,inhibitor,15
"PRKAA2 (Homo sapiens, UniProt P54646)",cell-free assay,,0
"RET (Homo sapiens, UniProt P07949, M918T)",enzyme activity,inhibitor,5
"AKT3 (Homo sapiens, UniProt Q9Y243)",enzyme activity,inhibitor,11
"Ribosomal protein S6 kinase alpha-5, N-terminal kinase domain (RPS6KA5, Homo sapiens, UniProt O75582)",,inhibitor,7
"CSNK1G1 (Homo sapiens, UniProt Q9HCP0)",enzyme activity,inhibitor,0
"BUB1 (Homo sapiens, UniProt O43683)",enzyme activity,inhibitor,0
"SRPK1 (Homo sapiens, UniProt Q96SB4)",enzyme activity,inhibitor,0
"WNK1 (Homo sapiens, UniProt Q9H4A3)",enzyme activity,inhibitor,7
"MARK3 (Homo sapiens, UniProt P27448)",enzyme activity,inhibitor,0
"Ribosomal protein S6 kinase alpha-4, C-terminal kinase domain (RPS6KA4, Homo sapiens, UniProt O75676)",,inhibitor,20
"DYRK2 (Homo sapiens, UniProt Q92630)",enzyme activity,inhibitor,0
"Myosin-IIIb (MYO3B, Homo sapiens, UniProt Q8WXR4)",enzyme activity,inhibitor,22
"PIK3CA (Homo sapiens, UniProt P42336, M1043I)",enzyme activity,inhibitor,0
"ROCK1 (Homo sapiens, UniProt Q13464)",enzyme activity,inhibitor,37
"Tyrosine-protein kinase ABL1, phosphorylated (ABL1, Homo sapiens, UniProt P00519)",enzyme activity,inhibitor,0
"PDGFRB (Homo sapiens, UniProt P09619)",enzyme activity,inhibitor,9

# Study 3 — cell line: normal-adjacent organoid sample E; method: CellTiter-Glo; concentration: 1 µM; setting: replicate mean; reference: DMSO
SMILES,viability [%]
Cn1cnc2c(F)c(Nc3ccc(Br)cc3Cl)c(C(=O)NOCCO)cc21,82.2
CNC(=O)c1ccccc1Nc1cc(Nc2ccc(N3CCOCC3)cc2OC)ncc1C(F)(F)F,25.3
Cc1cc(-n2nc(Cc3cc(F)cc(C(F)(F)F)c3)nc2C)ccc1C(N)=O,104
N#CC1(c2ccccn2)CCN(Cc2cc(C(=O)N3CCCC3)c(=O)n3ccccc23)CC1,113
Cc1noc([C@H]2C[C@@H](c3ccc(C(F)(F)F)cc3)CN(C(=O)N3CCS(=O)(=O)C3)C2)n1,113
O=C(O)c1ccc(-c2c[nH]c3ncc(-c4ccccc4)cc23)cc1C1CCCC1,107
CO[C@H]1CC[C@H](CNc2ccc(S(=O)(=O)NC(=O)c3ccc(N4CCN(CC5=C(c6ccc(Cl)cc6)CC(C)(C)CC5)CC4)cc3Oc3cnc4[nH]ccc4c3)cc2[N+](=O)[O-])CC1,73.4
NS(=O)(=O)c1cc(NC(=O)Cc2ccccc2)ccc1Oc1cccc(Cl)c1,119
CC(C)(O)c1cncc(-c2nc3ccc(F)cc3n2C2CC2)c1,105
Nc1nc(NCc2ccccc2)nc(-c2cccc(CO)c2)n1,120
CCCCN(Cc1ccccc1)C(=O)c1ccc(S(=O)(=O)Nc2ccccc2)cc1,173
C[C@H](c1ccnc(Nc2nc3ccc(-c4cc(N(C)C)ncn4)cc3[nH]2)c1)N1CCN(C(=O)CC(F)(F)F)CC1,83.3
O=C(NNS(=O)(=O)c1ccccc1)c1cc(-c2ccnnc2)ccc1F,120
CNC(=O)c1cc(C(=O)N[C@H]2[C@@H]3COC[C@@H]32)cc2c1O[C@@H](CF)[C@@H]2c1ccccc1,113
CCC(=O)N[C@H]1CC[C@@H](C(=O)N(C)c2ccc(-c3nc4ccccc4o3)cc2)C1,95.1
Nc1nc(NCc2ccccc2)nc(-c2ccccc2CO)n1,128
CNc1nc(-c2ccc3c(N)n[nH]c3c2)cc(N2C[C@@H](C(=O)NC3CCCCC3)CC[C@H]2C)n1,100
Cn1cncc1[C@@](O)(COc1ccc(C#N)cc1-c1ccc(OC(F)(F)F)cc1)c1ccc(C#N)cc1,86.5
CC1=C(C#N)C(c2ccc3c(c2)c(NC(=O)c2ccccc2C)nn3C)C(C#N)=C(C)N1,110
COc1cc(-c2cn(C3CCc4ccccc4N(CC(F)(F)F)C3=O)nn2)ccc1-n1ccc(C)n1 (centres unmarked),103
C[C@H](c1cccc(C#N)c1)n1cc(Cl)cc(C(N)=O)c1=N,115
Cc1c(NC(=O)c2cc(C(N)=O)nc3cc(F)ccc23)c(C(F)(F)F)nn1Cc1ccc(C#N)cc1,31.5
C[C@H](c1ccc(F)cc1)N(Cc1ccc(Cl)c(C(=O)O)c1)C(=O)c1cnc2ccccc2c1,91.6
CN(C)C(=O)Cn1cc(-c2ccc(-c3cncc4ccccc34)cc2)cn1,109
O=C1c2ccc(Nc3ccc(F)cc3F)cc2CCc2ccc(OC[C@H](O)CO)cc21,131

# Study 4 — observed: enzyme activity; action: inhibitor; concentration: 0.5 µM; reference: control
# Target: Serine/threonine-protein kinase PAK 4 (PAK4, Homo sapiens, UniProt O96013)
# UniProt O96013, sequence (whole entry, looked up): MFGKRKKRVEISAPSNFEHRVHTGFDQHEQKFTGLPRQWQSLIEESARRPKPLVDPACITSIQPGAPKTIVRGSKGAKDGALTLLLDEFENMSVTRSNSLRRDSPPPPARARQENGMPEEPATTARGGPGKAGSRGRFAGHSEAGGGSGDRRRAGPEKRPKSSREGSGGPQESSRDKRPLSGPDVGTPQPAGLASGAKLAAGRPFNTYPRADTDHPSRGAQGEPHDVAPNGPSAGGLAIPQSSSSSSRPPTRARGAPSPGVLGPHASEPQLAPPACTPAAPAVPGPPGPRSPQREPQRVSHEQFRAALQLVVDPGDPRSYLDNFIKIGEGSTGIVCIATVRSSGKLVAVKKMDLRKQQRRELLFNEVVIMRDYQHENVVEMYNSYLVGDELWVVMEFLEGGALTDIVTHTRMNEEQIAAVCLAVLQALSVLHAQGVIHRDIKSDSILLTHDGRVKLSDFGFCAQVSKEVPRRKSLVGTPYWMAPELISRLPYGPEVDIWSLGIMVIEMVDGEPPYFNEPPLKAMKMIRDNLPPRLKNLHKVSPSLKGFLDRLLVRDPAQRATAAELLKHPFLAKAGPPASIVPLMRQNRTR
SMILES,remaining activity [%]
CNc1cc2c(Nc3cccc(Br)c3)ncnc2cn1,93
CCCCc1c(-c2ccc(O)cc2)[nH]c2nccnc12,108
NC(=O)c1ccc(-c2nc(-c3ccc4c(c3)OCCO4)c(-c3ccccn3)[nH]2)cc1,105
CC(C)(C)c1nc2c3cc[nH]c(=O)c3c3cc(F)ccc3c2[nH]1,105
O=C(c1ccccc1)c1ccc(N2CCOCC2)cc1O,104
COc1cc2c(Nc3ccc(Br)cc3F)ncnc2cc1OCC1CCN(C)CC1,90.2
CC(C)N(CCC(=O)c1ccc2ccccc2c1)Cc1ccccc1,90.4
O=C1c2ccccc2-c2nc3nnnn3nc21,91.4
CC(C)n1cnc2c(Nc3cccc(Cl)c3)nc(NCCO)nc21,105
Nc1nc(Nc2ccc(S(N)(=O)=O)cc2)nn1C(=S)Nc1c(F)cccc1F,47.6
c1cc(-c2cnn3cc(-c4ccc(OCCN5CCCCC5)cc4)cnc23)ccn1,109
O=C1NC(=O)/C(=C/c2ccc3c(c2)OC(F)(F)O3)S1,90
CCN(CC)CCCCN1c2ccccc2Oc2ccc(Cl)cc21,104
N#CC(c1ccnc(NCCc2cccnc2)n1)c1nc2ccccc2s1 (centres unmarked),91.3
O=c1c(-c2ccc(F)cc2)c(-c2ccncc2)[nH]n1-c1ccc(Cl)cc1,82
NC(=O)c1cccc(-c2cc(Nc3ccc(OC(F)(F)F)cc3)ncn2)c1,94.6
C[C@@H](N)[C@H]1CC[C@H](C(=O)Nc2ccncc2)CC1,90.3
O=C(O)/C=C/c1cc(Br)c(Br)c(Br)c1Br,104
N#C/C(=C(/N)SC1C=CC=CC1)c1cccc(C(O)c2ccncc2)c1 (centres unmarked),76.3
O=Nc1c(-c2c(O)[nH]c3ccccc23)[nH]c2ccccc12,77.1
FC(F)(F)c1ccc(/C=C/c2nc(COc3ccc(CCCCn4ccnn4)cc3)co2)cc1,107
Clc1ccc(Nc2nnc(Cc3ccncc3)c3ccccc23)cc1,95.8

# Repeated from above (study 4):
SMILES,remaining activity [%]
NC(=O)c1cccc(-c2cc(Nc3ccc(OC(F)(F)F)cc3)ncn2)c1,94.6
C[C@@H](N)[C@H]1CC[C@H](C(=O)Nc2ccncc2)CC1,90.3
O=C(O)/C=C/c1cc(Br)c(Br)c(Br)c1Br,104
N#C/C(=C(/N)SC1C=CC=CC1)c1cccc(C(O)c2ccncc2)c1 (centres unmarked),76.3
O=Nc1c(-c2c(O)[nH]c3ccccc23)[nH]c2ccccc12,77.1
